Measurements collected from several papers.
Parts stem from different laboratories: compare values within a part only.

Series 1 — method: RNA Bind-n-Seq; molecule type: RNA; matrix: in vitro; tested at: not given; baseline: input RNA pool; reading: higher = stronger binding
Target: RING finger protein unkempt homolog, zinc fingers 1-6, GST-SBP tag (UNK, Homo sapiens, UniProt Q9C0B0, residues 30-357)
Chain of UniProt Q9C0B0 (30-357, looked up): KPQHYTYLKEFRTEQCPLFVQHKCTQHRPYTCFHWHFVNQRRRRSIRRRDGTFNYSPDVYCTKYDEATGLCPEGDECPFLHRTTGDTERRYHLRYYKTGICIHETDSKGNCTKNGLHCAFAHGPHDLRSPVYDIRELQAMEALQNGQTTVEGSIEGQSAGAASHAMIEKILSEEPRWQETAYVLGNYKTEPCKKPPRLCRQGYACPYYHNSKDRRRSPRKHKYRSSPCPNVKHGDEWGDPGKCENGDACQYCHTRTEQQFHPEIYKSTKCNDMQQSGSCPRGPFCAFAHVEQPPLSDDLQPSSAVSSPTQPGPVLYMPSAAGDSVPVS
Notes: RNA with constant flanks, human and mouse sites, ends assumed
Constant ends, left off below: GGGAGUUCUACAGUCCGACGAUC … CAACAGAGGAUUGAGCAUCA
`CAGAAUAACUCUUCACAACCUUCAAAGCAGAAAUAUGUAUGUCUUGCUGUGGAAGACUGGGACUUGUUAAAUUCCUAUUGAUUAGUAGAUACAAGUUGACCUUUCUCUGGCCCCCAGCUC` has a bound/input enrichment of 4.3 ratio.
With `UCAGGUGGCUAGAGCUGGGGACCUCAGACGACCAGCUUGCUUAUUUCUUUUUUUUUUCUCUUUUUUCUGUCUCUCCCGGCUGCUGUCCCUGCAUGAGAGAACUCCCACCUUCUGCUCUGG` the bound/input enrichment was 1.48 ratio.
For `GAAGACCUGAAAAAGCUGCAUGAUGAAAAAAUCGAGUCAUUGAGAGCUGAAUUUCAGUGCUUAGAACAAAAUCACCUGAAGGAAUUAGAGGACACACUGCACAUCAGGCACACACAGGAG`, the bound/input enrichment was 0.629 ratio.
The bound/input enrichment of `GUUGGAUUUCAUUUCCCCAGGUCUUCAGUGUUGAUGUAAAUGUGUUUUGUAGUGUUGCUUAGCACUUUGCGCAUUGUGUAAGUUGGGUAACAAAAAUGGCAAAAGAAAUGCAGAUUUCCC` is reported as 0.391 ratio.
For `GAAGUCACCUCAAAGCGAGCCCACAUGUUGAUUGACAUGCACUUUCGAAGUCUGCGCACCAAGUUGUCUCUUAUACUGAGAAAUGAAGAAGCCAGUAAACAACUGGAGAGUUCAAGGCAG`, the bound/input enrichment was 0.128 ratio.
With `UUGCUCAUCUAACUUCAUUGUACCCAGCGUCAUUUUGACAUGUCAUUUCCUAUCUCCCAUUUGCCUUCGGUCCUCAAUGCAUGUCUUUGAGUGACUUCUUAUCUGAAAUUUUGCUACUGG` the bound/input enrichment was 0.235 ratio.
With `UGCACUGAUAUCAUCCACCUGGACACCCAGCGGCUCCAUUACUACAGGGGCAAUUACAUGACCUUCAAGAAGAUGUACCAGCAGAAGCAGAAAGAGCUGCUAAAGCAGUACGAGAAGCAG` the bound/input enrichment was 0.113 ratio.
`UACCACGAGGGGGGACGCGUCUGGGUUGGCAGACCUUUUGGAUGUAGCCUUGUGGGAACAUUUAGACCCUUUCCUCUGGAAGAGCCACCAUGAAUUCGGUAGCCGGAAAUAAAGAGAGGC` has a bound/input enrichment of 0.343 ratio.
The bound/input enrichment of `CAGCUGCUUACCUGAACAUAACCUUAUGCUGCCCUUGGCUUGGCCACAUUUGUUAAAUCCUUAUUAUAUUGAUACUCUUCUUGAGGAGGAAAUCUCACCUUUUCUUUUUCAAGAGAUUCU` is reported as 0.413 ratio.
With `GGUGCUUAUAAUUAUCCUUUCACUUGGAAUACACCAUCUGCUCCCCCUGGCUAUAACAUUGCUGUCAAACCAGAUCAAAUCCAGUACACCGAACUGUCCAAUGCUAAGAUCGCCUACAAG` the bound/input enrichment was 0.25 ratio.
For `UGCAUUCUACGGCUGUUGGCCCAUUCAUGUCCUCUUGAUGUAUAUGCUGCUUGCCAGAGGUUAGCUUUCUGCAUACUUCAGCCCAUAAUAAUGAAAUCAGCAGUACUCACAUAUUUUGGG`, the bound/input enrichment was 0.147 ratio.

Series 2 — method: RNA Bind-n-Seq; molecule type: RNA; matrix: in vitro; tested at: 365 nM; baseline: no-protein control; reading: higher = stronger binding
Target: RNA binding protein fox-1 homolog 2, RRM domain, GST-SBP tag (RBFOX2, Homo sapiens, UniProt O43251-10, residues 100-194)
Notes: natural RNA segment, single round, ends assumed
Constant ends, left off below: GGGAGUUCUACAGUCCGACGAUC … UGGAAUUCUCGGGUGCCAA
Residues (chain): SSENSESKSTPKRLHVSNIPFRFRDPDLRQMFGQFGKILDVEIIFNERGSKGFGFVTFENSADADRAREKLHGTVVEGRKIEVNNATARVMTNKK
`AGGCAAAAAGUGUGUUGCCGAGGCCUCUUGGCUCUUGAGUAGCAGAGCUGAGACUGGUUCCCUGAUGCUCCGUCAGCUUCCCUAUGUGGCUGGCUCAUUAUUUUCCUCAA`: “RBNS enrichment (R)” 0.308.
For `GGACACUUCACUGCCAUUUUCUAUUCACAUAAAAGAAAAAUAAAUGUGGAAAUUUCAUCCUUGGAAAUGUGUUCUCUAUUCUUUUUAAAUUUUCUGUAUGUAUAUGGAAA`, “RBNS enrichment (R)” read 0.68.
`UAAAAUGUCUCUCUCACCCCCUAGCUUCAUGAUGUGACUCUUAAAAAACUAUAAUAGUUAACAACUGUUAGUAAGAUAGACCAAUUCUGAUUAGACUUUAUCAGGGAAUC`: “RBNS enrichment (R)” 0.312.
For `AGCAAAGCAUCUAUCUAUUCUGAAUCAUGUUUGGAAAUAAAAUUGCUCCAUCUGGGAAUGUGCUUUCUUUUCCCGUCUCAUUUUCUGUUUCCCAUUUGAAAACAGUGUUC`, “RBNS enrichment (R)” read 1.19.
Under “RBNS enrichment (R)”, `CUGGGUAUAAUUUGCACUUUUGAGACUGGUAGCUAACCAUCUUAUGAGUGCCAAUGUGUCAUUUAGUAAAACUUAAAUAGAAACAAGGUCCUUCAAAUGUUCCUUUGGCC` is recorded as 0.28.
`UUAAUAAAAGUUGUAUGAUAAAUCAUUAAAAAUGCGAGUGUAAAUAUUUUUUUUUACCUCUAUCAGGGUUUUUAUUUGAAAGUGUGCUCUUACCAUUUCCUUGUUUGAGU` — result for “RBNS enrichment (R)”: 0.763.
`AUGUUCAGGGGAGAAGAGGUCACAGGUCAGGCCAGCUGCCCCAUCCUUUAGUUCGGGGUUAGCUCCCAGAACUGCCCUGCACCAUAAGCUGGUGAUUCUCCAUGCCUGUC` — result for “RBNS enrichment (R)”: 0.449.
Under “RBNS enrichment (R)”, `GUUCACCUGUGACCUUGGGCUGGGAUUCUCUUUAGGAAAAAAGGCUACUACUAUGUUAUGAGAGUCAAAAAUAACUCCUUGUGUUUGCUUAAUUUAUUGUUUAACACCCC` is recorded as 1.48.
Under “RBNS enrichment (R)”, `CGGUGGUGGUGGAUAGCAUCACAAGAAACGAGCCUGAAAAUCAGGUCCAGCCGGUCCAAGCACAUGGCCUCCCAUCUGGGAGAGCCCACUGUCCCACUCCCACAUGUCUG` is recorded as 0.332.
Under “RBNS enrichment (R)”, `AUUGGGUUACUGUAUAAGGAAAAUGGCAGGGGAGUUGUGGGAAGCUUGUCUUUACAAAAUAUAAUUGAUUAAGAUAUGUCAAGACCUACAUUGUCUAAGCACCGGCAAAU` is recorded as 0.395.
`CCCUCACCCCACUCUCUUCCCAUGUUCGUUGAUCCACCCCUAUCUGAGAAACUCCAGCCUCAAGAAUAUAAUCUCAUUCUAACCUUCACCUCUUCAACUUCUUCUGUGGC`: “RBNS enrichment (R)” 1.98.
For `AAAAAAAAAGAAAAGCCAAGCAAACCAAUGGUGAUCCUCUAUUUUGUGAUGAUGCUGUGACAAUAAGUUUGAACCUUUUUUUUUGAAACAGCAGUCCCAGUAUUCUCAGA`, “RBNS enrichment (R)” read 0.347.

Series 3 — target: human cyclin B1; effect on: peptide binding; method: yeast competitive growth sequencing; molecule type: peptide; organism: Saccharomyces cerevisiae; strain: cyclin B1-Cln2 fusion; tested at: concentration not given; notes: peptide tiling library; reading: direction not given
For `PKRAKRKLYTSEISSP`, “binding enrichment score” read 0.374.
Under “binding enrichment score”, `RQVRRDLFAF` is recorded as -0.401.
`PFSENVSAVQKLDFSD` — result for “binding enrichment score”: 1.31.
`TLPYDLACTGGDFVLF`: “binding enrichment score” 0.413.
Under “binding enrichment score”, `NRLLKLFTRCLTPLVP` is recorded as -0.337.
For `SPPRGRRLFPPGPAGF`, “binding enrichment score” read -0.375.
`PPTFLSTGEIHAFLSS`: “binding enrichment score” 0.565.
`IFNKPECGRVQRAIFQ`: “binding enrichment score” 0.525.
For `RTEALEQGGLPKKLIF`, “binding enrichment score” read 0.146.
`GTPKRCLDLSNLSSGE` — result for “binding enrichment score”: -0.518.
For `ASVLSKPIFCFVKD`, “binding enrichment score” read -0.176.
`TSSAQRRLEIPSGGAD` — result for “binding enrichment score”: 0.0856.
For `SMTDFYHSKRRLIFSK`, “binding enrichment score” read -0.515.
For `RVSGLLSWTLSRVLWL`, “binding enrichment score” read -0.112.
`RKLDLEGIGR` — result for “binding enrichment score”: 0.157.

Series 4 — method: protein binding microarray; molecule type: double-stranded DNA, one strand shown; matrix: in vitro; tested at: not given; baseline: not given; reading: higher = stronger binding
Target: Histone acetyltransferase KAT6A, winged helix 2, GST fusion (KAT6A, Homo sapiens, UniProt Q92794, residues 85-181)
Notes: 8-mer, flanks averaged, mean of 2 arrays, mostly near background
Residues (chain): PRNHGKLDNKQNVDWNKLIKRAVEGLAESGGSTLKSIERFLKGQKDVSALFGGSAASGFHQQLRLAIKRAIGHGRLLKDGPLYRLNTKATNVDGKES
For `AATTAGGG`, the E-score was -0.188.
With `GCGTCGGA` the E-score was 0.0893.
With `CAGATAAC` the E-score was -0.0415.
With `ACGGCAGA` the E-score was 0.169.
The E-score of `CTAACCAC` is reported as -0.0352.
The E-score of `ACACACGT` is reported as -0.22.
`TATCTTAA` has an E-score of 0.11.
The E-score of `CGTCGGAC` is reported as -0.0384.
With `AGATTAGA` the E-score was 0.044.
For `AACATATG`, the E-score was -0.231.
`AGTGATGG` gave an E-score of -0.0662.
`GGGGCCGA` has an E-score of 0.146.
`ACAGGGTA` has an E-score of -0.0295.
The E-score of `AAGCAGGA` is reported as 0.0196.
`CCAAGCGC` gave an E-score of 0.178.
With `CTTTGGAC` the E-score was 0.0972.
For `GTCAAAAA`, the E-score was 0.0631.
The E-score of `AGTGTTAG` is reported as 0.0568.
With `CTGACATA` the E-score was -0.0225.
For `ACAGCCTG`, the E-score was 0.0192.
With `AATCTATG` the E-score was 0.131.
For `AGATCTAT`, the E-score was -0.0508.
With `GCGGTGAA` the E-score was -0.033.
`AGGTCGAA` gave an E-score of 0.119.
For `TACTCCAA`, the E-score was 0.0273.

For quick reference, copied from above (series 2):
`AGGCAAAAAGUGUGUUGCCGAGGCCUCUUGGCUCUUGAGUAGCAGAGCUGAGACUGGUUCCCUGAUGCUCCGUCAGCUUCCCUAUGUGGCUGGCUCAUUAUUUUCCUCAA`: “RBNS enrichment (R)” 0.308.
Under “RBNS enrichment (R)”, `CGGUGGUGGUGGAUAGCAUCACAAGAAACGAGCCUGAAAAUCAGGUCCAGCCGGUCCAAGCACAUGGCCUCCCAUCUGGGAGAGCCCACUGUCCCACUCCCACAUGUCUG` is recorded as 0.332.
For `GGACACUUCACUGCCAUUUUCUAUUCACAUAAAAGAAAAAUAAAUGUGGAAAUUUCAUCCUUGGAAAUGUGUUCUCUAUUCUUUUUAAAUUUUCUGUAUGUAUAUGGAAA`, “RBNS enrichment (R)” read 0.68.
`UUAAUAAAAGUUGUAUGAUAAAUCAUUAAAAAUGCGAGUGUAAAUAUUUUUUUUUACCUCUAUCAGGGUUUUUAUUUGAAAGUGUGCUCUUACCAUUUCCUUGUUUGAGU` — result for “RBNS enrichment (R)”: 0.763.
`AUGUUCAGGGGAGAAGAGGUCACAGGUCAGGCCAGCUGCCCCAUCCUUUAGUUCGGGGUUAGCUCCCAGAACUGCCCUGCACCAUAAGCUGGUGAUUCUCCAUGCCUGUC` — result for “RBNS enrichment (R)”: 0.449.
`CCCUCACCCCACUCUCUUCCCAUGUUCGUUGAUCCACCCCUAUCUGAGAAACUCCAGCCUCAAGAAUAUAAUCUCAUUCUAACCUUCACCUCUUCAACUUCUUCUGUGGC`: “RBNS enrichment (R)” 1.98.
For `AGCAAAGCAUCUAUCUAUUCUGAAUCAUGUUUGGAAAUAAAAUUGCUCCAUCUGGGAAUGUGCUUUCUUUUCCCGUCUCAUUUUCUGUUUCCCAUUUGAAAACAGUGUUC`, “RBNS enrichment (R)” read 1.19.
`UAAAAUGUCUCUCUCACCCCCUAGCUUCAUGAUGUGACUCUUAAAAAACUAUAAUAGUUAACAACUGUUAGUAAGAUAGACCAAUUCUGAUUAGACUUUAUCAGGGAAUC`: “RBNS enrichment (R)” 0.312.
